Published values collected from several papers.
A part holds a random share of what one study measured. Positions count from the first letter of the parent shown.

Study 1
Target: CCNB1, cyclin fold, Cln2 fusion (human)
Method: yeast growth competition, sequencing
Medium: yeast
Notes: weak parent motif
Reference: not given
Direction: higher = stronger binding
Quantity: normalised enrichment score
Parent: CDC6 docking peptide (human); TLKGRRLVFDNQL
V8E: 0.392
L7H: 0.128
L2R: 1.19
T1A: 0.404
R6H: 0.221
G4E: -0.48
N11K: -0.372
F9H: 0.195
T1G: 0.58

Study 2
Target: Interferon regulatory factor 7, full length, phosphomimetic (IRF7, Homo sapiens, UniProt Q92985, residues 1-503, S101K/S471D/S472D/S475D/S476D/S477D/S483D/S484D/S487D)
Chain of UniProt Q92985 (whole entry, unmodified, looked up): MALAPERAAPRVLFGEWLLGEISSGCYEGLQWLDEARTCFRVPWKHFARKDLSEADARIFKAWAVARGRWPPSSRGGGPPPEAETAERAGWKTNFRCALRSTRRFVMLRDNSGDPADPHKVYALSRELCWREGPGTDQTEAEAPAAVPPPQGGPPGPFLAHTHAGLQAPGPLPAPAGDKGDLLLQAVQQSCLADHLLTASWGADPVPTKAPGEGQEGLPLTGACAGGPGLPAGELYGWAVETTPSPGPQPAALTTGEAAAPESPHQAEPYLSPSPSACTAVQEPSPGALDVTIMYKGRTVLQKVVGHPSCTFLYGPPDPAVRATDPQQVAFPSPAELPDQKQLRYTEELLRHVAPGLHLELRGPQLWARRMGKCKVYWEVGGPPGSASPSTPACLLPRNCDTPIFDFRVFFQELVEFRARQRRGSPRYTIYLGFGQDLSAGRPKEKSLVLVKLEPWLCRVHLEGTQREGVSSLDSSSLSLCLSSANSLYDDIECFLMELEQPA
Method: protein-binding microarray
Molecule type: double-stranded DNA, one strand shown
Medium: in vitro
Concentration: 250 nM
Notes: 60-bp whole probe
Together with: salmon DNA 0.4 mg/ml
Reference: random background probes
Direction: higher = stronger binding
Quantity: log fluorescence
All sequences stand within: GCCTAGCAC … GTCTTGATTCGCTTGACGCTGCTG
GACGAACTGGGTTATCGAGACGTGCTA: -0.511 z-score
TTAGCACTGCTTATCCTTTAGTGCTAG: -0.131 z-score
GACGATATCAGACTGGAGAAGTGCTAG: -0.214 z-score
TCAATATTCTGCTTTGCACTGTGCTAG: 0.379 z-score
TCATGTTTACAGATGTTACTGTGCTAG: 0.503 z-score
TTAGGCTCCCTTTTCCTTTAGTGCTAG: 1.68 z-score
GACCGTATCCTTATCCTGACGTGCTAG: 0.592 z-score
TTTTCTTTTCATTACTGCATGTGCTAG: 3.86 z-score

Study 3
Target: Prothrombin, mature alpha-thrombin (F2, Homo sapiens, UniProt P00734)
Method: aptamer microarray, sandwich
Molecule type: DNA with 2'F-ANA
Medium: in vitro
Concentration: 200 nM
Notes: whole 15-mer aptamer, many near background
Together with: Cy3 exosite-II aptamer, 400 nM
Direction: higher = stronger binding
Quantity: mean fluorescence intensity
Sequence: GGTTGGTGTGGTTGG
2'F-ANA at 1 2 3 4 5 6 7 9 10 11 13 15: 50.2 a.u.
2'F-ANA at 1 2 3 4 5 6 9 10 11 14: 45.2 a.u.
2'F-ANA at 2 3 11 12 13 15: 880 a.u.
2'F-ANA at 1 2 3 7 8 10 11 12 15: 98.1 a.u.
2'F-ANA at 2 3 6 7 12 13 15: 811 a.u.
2'F-ANA at 10 11: 155 a.u.
2'F-ANA at 1 5 6 7 8 12 13 15: 95.7 a.u.
2'F-ANA at 1 3 6 7 10 13 15: 74.6 a.u.
2'F-ANA at 5 7 12 13 14: 48.7 a.u.
2'F-ANA at 1 4 5 6 8 10 12 13 15: 76.7 a.u.
2'F-ANA at 3 6 8 9 10 11: 481 a.u.
2'F-ANA at 2 5 6 7 8 9 10 13 14 15: 49.7 a.u.
2'F-ANA at 3 4 5 6 7 9 12 13 14: 49.4 a.u.

Single results of other studies
PhoQ, residues 284 288 289 292 302 303 SCEHLI
fold induction (PhoP, residues 12 14 15 18 19 LHHSG (Escherichia coli, UniProt P23836); Sort-seq, item: YFP reporter; E. coli; PhoQ-PhoP variant library, together with: 10 µM Mg2+; reference: high Mg2+ state, higher = stronger signaling): 10.2

Some of these lines once more (study 1):
L2R: 1.19
T1A: 0.404
R6H: 0.221
G4E: -0.48
N11K: -0.372
